Measurements pooled from the literature.
Each numbered part is a random draw from the data of one study; scales do not carry over between parts.

Series 1 — technique: aptamer microarray, sandwich; molecule type: DNA with 2'F-ANA; medium: in vitro; tested at: 200 nM; added: Cy3 exosite-II aptamer, 400 nM; reading: higher = stronger binding; oligonucleotide: GGTTGGTGTGGTTGG
Target: Prothrombin, mature alpha-thrombin (F2, Homo sapiens, UniProt P00734)
Notes: whole 15-mer aptamer, many near background
Modification | mean fluorescence intensity [a.u.]
2'F-ANA at 1 2 4 6 9 10 12 14 15 | 49.3
2'F-ANA at 1 2 3 4 7 10 11 12 13 14 | 54.9
2'F-ANA at 1 3 4 5 7 10 15 | 44.6
2'F-ANA at 5 8 10 15 | 48.2
2'F-ANA at 1 2 5 6 8 9 10 | 54.6
2'F-ANA at 1 2 4 5 7 8 9 10 11 12 13 14 15 | 53.8
2'F-ANA at 1 3 5 8 10 12 14 | 50
2'F-ANA at 2 3 4 5 6 7 8 11 14 | 51
2'F-ANA at 2 5 9 10 | 45.8
2'F-ANA at 1 3 5 10 13 14 | 47.8
2'F-ANA at 4 8 12 15 | 615
2'F-ANA at 1 4 11 13 | 102
2'F-ANA at 1 2 6 10 11 14 | 57.9
2'F-ANA at 1 5 6 9 10 11 14 | 47.2
2'F-ANA at 3 4 5 7 11 14 15 | 56.9
2'F-ANA at 3 10 13 | 528

Series 2 — technique: protein-binding microarray; molecule type: double-stranded DNA, one strand shown; medium: in vitro; tested at: 250 nM; notes: 60-bp whole probe; added: salmon DNA 0.4 mg/ml; baseline: random background probes; reading: higher = stronger binding; all sequences stand within: GCCTAGCAC … GTCTTGATTCGCTTGACGCTGCTG
Target: Interferon regulatory factor 5, full length, phosphomimetic (IRF5, Homo sapiens, UniProt Q13568-2, residues 1-514, K96S/S451D/S453D/S456D/S462D)
Oligonucleotide | log fluorescence [z-score]
TCAGGTATTTTTTTCTAACTGTGCTAG | 0.399
GACGGTTCCCTTTTCCTAACGTGCTAG | 0.507
TCAATTATTGTTTCCTTACTGTGCTAG | 1.4
TGAGGACTGGGTCTCGGTTAGTGCTAG | -0.304
TTCGGTATCGGTCTCGGTTAGTGCTAG | 7.92
TTAGGTTACCTTTTCCTTTAGTGCTAG | 0.742
TTAGGTTTCGCCTATCGGTTAGTGCTA | 7.6
TCACCTCTCACGCATCTGACTGTGCTA | 0.12
TTAGGTTCCCTTTTCCCTTAGTGCTAG | 0.395
TCATGTTTCTACTGTCTGACTGTGCTA | 1.57
TTAGGTCTCGGTATGGGTTAGTGCTAG | 0.687
TTAGGTCTCGGTCTCGGTGAGTGCTAG | 0.648
TCCAGTCTGGGAGATGAAGCGGTGCTA | -0.7
TTAGGTATCGGTATCAGTTAGTGCTAG | 7.87
GCAGGAGAGACAGAAGTTATGTGCTAG | -0.386
TTAGGTTTCGACACTGGGGTAGTGCTA | 5.83
GACGGATTGGACTATCGGGACGTGCTA | 0.938
TCATCCATCACTTTCCAACTGTGCTAG | 0.937
TTAGGTCTCCTCCTGCTTTAGTGCTAG | -0.384
TTAGGTCGCCTACTGCTTTAGTGCTAG | -0.507
GACGGTATCGACTTACGGGACGTGCTA | 2.64
TTACATTTCAGTTTCGATTAGTGCTAG | 10.5
GACGATTCGAGTTTCGAGACGTGCTAG | 4.62
GGCACCCAAGCTCTTGTTTGGTGCTAG | -0.845
CACGAACTGAGACTGGAGACGTGCTAG | -0.63

Series 3 — technique: protein binding microarray; molecule type: double-stranded DNA, one strand shown; medium: in vitro; tested at: not given; baseline: not given; reading: higher = stronger binding
Target: Histone acetyltransferase KAT6A, winged helix 1, GST fusion (KAT6A, Homo sapiens, UniProt Q92794, residues 1-85)
Notes: 8-mer, flanks averaged, mean of 2 arrays, mostly near background
Residues (chain): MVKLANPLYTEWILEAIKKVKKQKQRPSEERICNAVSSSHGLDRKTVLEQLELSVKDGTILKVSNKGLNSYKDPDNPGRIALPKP
Oligonucleotide | E-score
GCCCGGTA | 0.308
TGTCGAAA | -0.223
CTGGGCGA | 0.0543
ACAGCGAC | 0.126
CAAGGGAG | -0.205
GAATGGAC | -0.238
AGGGCACC | -0.114
GCCTAGCC | 0.218
ATAAACAA | -0.0497
AGTCCCCA | -0.302
CTAGGGCC | 0.0179
GCTGAGGA | 0.0455
CGTACTGA | 0.118
CGCAACGA | 0.0843
GGCCGGAA | 0.193
AGTTGTAC | 0.0942
AACCACAT | -0.252
ACTTTAAC | -0.202
CCTATACA | -0.143
GATCAATC | -0.000465
TAACTAAA | -0.0944
AACATAAG | -0.0117

Series 4 — technique: RNA Bind-n-Seq; molecule type: RNA; medium: in vitro; tested at: 200 nM; notes: whole 134-nt RNA, ends assumed; added: 150 mM LiCl; baseline: input library; reading: higher = stronger binding; library: 7-deaza-guanosine replaces G
Target: Fragile X messenger ribonucleoprotein 1, C-terminal low-complexity region (Fmr1, Mus musculus, UniProt P35922)
All sequences stand within: GGGAGUUCUACAGUCCGACGAUC … UGGAAUUCUCGGGUGUCAAGG
Oligonucleotide | log2 enrichment
ACCAUGCAGGUGGGCAUCUUCGGGAAGUGGGGCAAGGGGGGGAUAGGGAGGGGGGUAACACUUUGGGAACAGGUGGUCCCAGGUCGUUUC | 1.38
CCUGUGCUACACAUCGUAUGUACCGAAUCGGGGUUUGGGGAAAAAGGGGUUUUUUUGGGGAAAGUAUUAUGUUACGCCGUUCGGAUCUGC | -0.993
UCAAGUCCUGUGCUACACAUCGUAUGUACCGAAUCGGCCCGGGCCCGGGCCCGGGAAAGUAUUAUGUUACGCCGUUCGGAUCUGCACUUC | -1.27
AGUCCUGUGCUACACAUCGUAUGUACCGAAUCAAACCCCCCCAAACCCAAACCCAAAAAAGUAUUAUGUUACGCCGUUCGGAUCUGCACU | 0.381
AGUCCUGUGCUACACAUCGUAUGUACCGAAUCGGGGAGGGGAAAAAGGGGAAAGGGGAAAGUAUUAUGUUACGCCGUUCGGAUCUGCACU | 0.317
UCCUCAAGUCCUGUGCUACACAUCGUAUGUACCGAAUCGGGGAGGAGGAGGAAAGUAUUAUGUUACGCCGUUCGGAUCUGCACUUCCAGC | -2.06
AAGUCCUGUGCUACACAUCGUAUGUACCGAAUCGGCCCCGGGCCCCGGCCCCGGGGAAAGUAUUAUGUUACGCCGUUCGGAUCUGCACUU | -2.14
UGGCCCUGGUGGCAUGCGGGGAGGAAGAGGUCGCCUCAUGGAUCGUGGUGGUCCCGGUGGAAUGUUCAGAGGUGGCCGUGGUGGAGACAG | -0.131
UCCUGUGCUACACAUCGUAUGUACCGAAUCGGGGAGGGGAAAAAGGGGAAAAAAAGGGGAAAGUAUUAUGUUACGCCGUUCGGAUCUGCA | 0.37
GUCCUGUGCUACACAUCGUAUGUACCGAAUCAAACCCCCCCAAACCCCCAAACCCAAAAAAGUAUUAUGUUACGCCGUUCGGAUCUGCAC | 0.834
CUCAAGUCCUGUGCUACACAUCGUAUGUACCGAAUCGGCCGGCCGGGGCCGGGAAAGUAUUAUGUUACGCCGUUCGGAUCUGCACUUCCA | 0.802

Series 5 — technique: RNAcompete; molecule type: RNA; medium: in vitro; tested at: 20 nM; notes: 7-mer, probes averaged, single round; baseline: mean of 7-mers; reading: higher = stronger binding
Target: PABPC1L2, full length, GST fusion (mouse, UniProt A0ABA7IW68)
Residues (chain): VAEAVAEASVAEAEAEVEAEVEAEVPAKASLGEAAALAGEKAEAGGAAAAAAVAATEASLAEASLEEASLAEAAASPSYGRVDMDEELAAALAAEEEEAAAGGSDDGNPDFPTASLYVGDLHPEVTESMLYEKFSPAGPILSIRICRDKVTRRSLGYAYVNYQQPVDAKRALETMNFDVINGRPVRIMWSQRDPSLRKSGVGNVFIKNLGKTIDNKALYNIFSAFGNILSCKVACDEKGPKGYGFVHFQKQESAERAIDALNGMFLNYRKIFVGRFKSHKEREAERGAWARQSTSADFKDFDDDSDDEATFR
Oligonucleotide | 7-mer Z-score
UGUUUUU | -0.378
CUGGGAC | 0.0352
AGCACAG | -0.0645
UAGUCAC | -0.267
AAAUUGU | 1.21
UACCGAA | -0.00652
CAUCAGC | -0.222
AGUACUG | -0.211
AAUAUCG | 0.278
CAACGGC | -0.211
CCCACAG | -0.402
UUUGUAA | -0.112
GCUACAA | 0.095
CACCAUU | -0.229
GAGACCG | 0.066
UAGAGCU | -0.0156
UGGGAAU | 0.095
AGAGCCU | -0.347
UGCCUUG | -0.266
UUUUACC | -0.258
CAGAGGC | 0.144
UCUUUAU | -0.0446
GUUUUUU | -0.394
GACACCA | -0.124
CAAGAUC | -0.0591

Other studies, line by line
Substance | target | test | system | setting | how to read | measurement | value
PhoQ, residues 284 288 289 292 302 303 ALAMYF | PhoP, residues 12 14 15 18 19 FWNTL (Escherichia coli, UniProt P23836) | Sort-seq, refers to: YFP reporter | E. coli | PhoQ-PhoP variant library, added: 10 µM Mg2+ | baseline: high Mg2+ state, higher = stronger signaling | fold induction | 45.9

For quick reference, copied from above (series 4):
Oligonucleotide | log2 enrichment
AGUCCUGUGCUACACAUCGUAUGUACCGAAUCGGGGAGGGGAAAAAGGGGAAAGGGGAAAGUAUUAUGUUACGCCGUUCGGAUCUGCACU | 0.317
AGUCCUGUGCUACACAUCGUAUGUACCGAAUCAAACCCCCCCAAACCCAAACCCAAAAAAGUAUUAUGUUACGCCGUUCGGAUCUGCACU | 0.381
ACCAUGCAGGUGGGCAUCUUCGGGAAGUGGGGCAAGGGGGGGAUAGGGAGGGGGGUAACACUUUGGGAACAGGUGGUCCCAGGUCGUUUC | 1.38
UCCUGUGCUACACAUCGUAUGUACCGAAUCGGGGAGGGGAAAAAGGGGAAAAAAAGGGGAAAGUAUUAUGUUACGCCGUUCGGAUCUGCA | 0.37
CCUGUGCUACACAUCGUAUGUACCGAAUCGGGGUUUGGGGAAAAAGGGGUUUUUUUGGGGAAAGUAUUAUGUUACGCCGUUCGGAUCUGC | -0.993
UGGCCCUGGUGGCAUGCGGGGAGGAAGAGGUCGCCUCAUGGAUCGUGGUGGUCCCGGUGGAAUGUUCAGAGGUGGCCGUGGUGGAGACAG | -0.131
CUCAAGUCCUGUGCUACACAUCGUAUGUACCGAAUCGGCCGGCCGGGGCCGGGAAAGUAUUAUGUUACGCCGUUCGGAUCUGCACUUCCA | 0.802
AAGUCCUGUGCUACACAUCGUAUGUACCGAAUCGGCCCCGGGCCCCGGCCCCGGGGAAAGUAUUAUGUUACGCCGUUCGGAUCUGCACUU | -2.14
UCCUCAAGUCCUGUGCUACACAUCGUAUGUACCGAAUCGGGGAGGAGGAGGAAAGUAUUAUGUUACGCCGUUCGGAUCUGCACUUCCAGC | -2.06
UCAAGUCCUGUGCUACACAUCGUAUGUACCGAAUCGGCCCGGGCCCGGGCCCGGGAAAGUAUUAUGUUACGCCGUUCGGAUCUGCACUUC | -1.27
GUCCUGUGCUACACAUCGUAUGUACCGAAUCAAACCCCCCCAAACCCCCAAACCCAAAAAAGUAUUAUGUUACGCCGUUCGGAUCUGCAC | 0.834
